Measured values from different studies.
± marks the error that the study gave.

Compound	host	medium	route	dose	time	notes	tissue uptake
N=C(N)NCCC[C@@H]1NC(=O)[C@H](CCCCNC(=O)CNC(=O)CNC(=O)CNC(=O)CC[C@H](NC(=O)CCOCCOCCOCCOCCNC(=O)CC[C@H](NC(=O)CN2CCN(CC(=O)O)CCN(CC(=O)O)CCN(CC(=O)O)CC2)C(=O)NCCOCCOCCOCCOCCC(=O)N[C@@H](CCC(=O)NCC(=O)NCC(=O)NCC(=O)NCCCC[C@@H]2NC(=O)[C@@H](Cc3ccccc3)NC(=O)[C@H](CC(=O)O)NC(=O)CNC(=O)[C@H](CCCNC(=N)N)NC2=O)C(=O)NCC(=O)NCC(=O)NCC(=O)NCCCC[C@@H]2NC(=O)[C@@H](Cc3ccccc3)NC(=O)[C@H](CC(=O)O)NC(=O)CNC(=O)[C@H](CCCNC(=N)N)NC2=O)C(=O)NCC(=O)NCC(=O)NCC(=O)NCCCC[C@@H]2NC(=O)[C@@H](Cc3ccccc3)NC(=O)[C@H](CC(=O)O)NC(=O)CNC(=O)[C@H](CCCNC(=N)N)NC2=O)NC(=O)[C@@H](Cc2ccccc2)NC(=O)[C@H](CC(=O)O)NC(=O)CNC1=O [indium-111 labelled]	athymic nude mice, female, U-87 MG glioma xenograft	U-87 MG tumour	intravenous	3 µCi	24 h	–	5.79 ± 0.67 %ID/g
N=C(N)NCCC[C@@H]1NC(=O)[C@H](CCCCNC(=O)CCOCCOCCOCCOCCNC(=O)CC[C@H](NC(=O)CCOCCOCCOCCOCCNC(=O)[C@H](CCCCNC(=O)c2ccc(NN)nc2)NC(=O)c2ccc(NN)nc2)C(=O)NCCOCCOCCOCCOCCC(=O)NCCCC[C@@H]2NC(=O)[C@@H](Cc3ccccc3)NC(=O)[C@H](CC(=O)O)NC(=O)CNC(=O)[C@H](CCCNC(=N)N)NC2=O)NC(=O)[C@@H](Cc2ccccc2)NC(=O)[C@H](CC(=O)O)NC(=O)CNC1=O [technetium-99m labelled]	female athymic nude mice	kidneys	intravenous	0.1 MBq	1 h	U-87 MG glioma xenograft	9.28 ± 1.14 %ID/g
CSCC[C@H](NC(=O)[C@H](CC(C)C)NC(=O)[C@H](Cc1c[nH]cn1)NC(=O)CNC(=O)[C@@H](NC(=O)[C@H](C)NC(=O)[C@H](Cc1c[nH]c2ccccc12)NC(=O)[C@H](CCC(N)=O)NC(=O)CCCCNC(=O)CSCCSCCP(CO)CO)C(C)C)C(N)=O [technetium-99m labelled]	CF-1 mice, female	brain	intravenous	–	24 h	–	0 %ID
CSCC[C@H](NC(=O)[C@H](CC(C)C)NC(=O)[C@H](Cc1c[nH]cn1)NC(=O)CNC(=O)[C@@H](NC(=O)[C@H](C)NC(=O)[C@H](Cc1c[nH]c2ccccc12)NC(=O)[C@H](CCC(N)=O)NC(=O)CNC(=O)[C@H](CO)NC(=O)CNC(=O)CCCCCCCNC(=O)CCC(=O)Nc1ccc(CNC23CNCCNCC(N)(CNCCNC2)CNCCNC3)cc1)C(C)C)C(N)=O [copper-64 labelled]	female SCID mice, PC-3 xenograft	bone	intravenous	0.6 MBq	1 h	–	1.41 ± 0.335 %ID/g
N=C(N)NCCC[C@@H]1NC(=O)[C@H](CCCCNC(=O)CCOCCOCCOCCOCCNC(=O)CC[C@H](NC(=O)CCOCCOCCOCCOCCNC(=O)CC[C@H](NC(=O)CN2CCN(CC(=O)O)CCN(CC(=O)O)CCN(CC(=O)O)CC2)C(=O)NCCOCCOCCOCCOCCC(=O)N[C@@H](CCC(=O)NCCOCCOCCOCCOCCC(=O)NCCCC[C@@H]2NC(=O)[C@@H](Cc3ccccc3)NC(=O)[C@H](CC(=O)O)NC(=O)CNC(=O)[C@H](CCCNC(=N)N)NC2=O)C(=O)NCCOCCOCCOCCOCCC(=O)NCCCC[C@@H]2NC(=O)[C@@H](Cc3ccccc3)NC(=O)[C@H](CC(=O)O)NC(=O)CNC(=O)[C@H](CCCNC(=N)N)NC2=O)C(=O)NCCOCCOCCOCCOCCC(=O)NCCCC[C@@H]2NC(=O)[C@@H](Cc3ccccc3)NC(=O)[C@H](CC(=O)O)NC(=O)CNC(=O)[C@H](CCCNC(=N)N)NC2=O)NC(=O)[C@@H](Cc2ccccc2)NC(=O)[C@H](CC(=O)O)NC(=O)CNC1=O [indium-111 labelled]	female athymic nude mice	blood	intravenous	3 µCi	72 h	U-87 MG glioma xenograft	0.06 %ID/g
N=C(N)NCCC[C@H](NC(=O)[C@H](CCCCN)NC(=O)[C@H](CCC(N)=O)NC(=O)CCOCCOCCOCCNC(=O)CN1CCN(CC(=O)O)CCN(CC(=O)O)CCN(CC(=O)O)CC1)C(=O)N[C@@H](CCCCN)C(=O)N[C@@H](CCCNC(=N)N)C(=O)N[C@@H](CCCCN)C(=O)N[C@@H](CCCCN)C(=O)N[C@@H](CO)C(=O)N[C@@H](CCCNC(=N)N)C(=O)N[C@@H](Cc1ccc(O)cc1)C(=O)N[C@@H](CCCCN)C(=O)N[C@@H](CO)C(=O)O [copper-64 labelled]	C57BL/6 mice, B16-F10 tumour	kidney	intravenous	–	60 min	–	157 ± 8.63 %ID/g
CSCC[C@H](NC(=O)[C@H](CC(C)C)NC(=O)[C@H](Cc1c[nH]cn1)NC(=O)CNC(=O)[C@@H](NC(=O)[C@H](C)NC(=O)[C@H](Cc1c[nH]c2ccccc12)NC(=O)[C@H](CCC(N)=O)NC(=O)CCCCCCCNC(=O)CCC(=O)Nc1ccc(CNC23CNCCNCC(N)(CNCCNC2)CNCCNC3)cc1)C(C)C)C(N)=O [copper-64 labelled]	female SCID mice, PC-3 xenograft	kidney	intravenous	0.6 MBq	1 h	–	9.37 ± 0.898 %ID/g
N=C(N)NCCC[C@@H]1NC(=O)[C@H](CCCCNC(=O)CCOCCOCCOCCOCCNC(=O)CC[C@H](NC(=O)[C@H](CCCCNC(=O)c2ccc(NN)nc2)NC(=O)c2ccc(NN)nc2)C(=O)NCCOCCOCCOCCOCCC(=O)NCCCC[C@@H]2NC(=O)[C@@H](Cc3ccccc3)NC(=O)[C@H](CC(=O)O)NC(=O)CNC(=O)[C@H](CCCNC(=N)N)NC2=O)NC(=O)[C@@H](Cc2ccccc2)NC(=O)[C@H](CC(=O)O)NC(=O)CNC1=O [technetium-99m labelled]	female athymic nude mice	kidneys	intravenous	0.1 MBq	1 h	U-87 MG glioma xenograft	9.94 ± 1.65 %ID/g
CC(C)C[C@H](NC(=O)[C@H](Cc1ccc(O)cc1)NC(=O)[C@@H](CCCNC(=N)N)NC(=O)[C@@H](CO)NC(=O)[C@H](Cc1ccccc1)NC(=O)[C@H](CC1CCCCC1)NC(=O)[C@H](CC(=O)O)NC(=O)CCC(C(=O)O)N1CCCN2CCN(CCCN(CC(=O)O)CC2)CC1)C(=O)N[C@@H](Cc1c[nH]c2ccccc12)C(=O)N[C@@H](CO)C(=O)O (stereo partly shown) [copper-64 labelled]	female NMRI nude mice	lung	–	–	1 h p.i.	–	4.3 ± 0.7 %ID/g
N=C(N)NCCC[C@@H]1NC(=O)[C@H](CCCCNC(=O)CC[C@H](NC(=O)CCOCCOCCOCCOCCNC(=O)CN2CCN(CC(=O)O)CCN(CC(=O)O)CCN(CC(=O)O)CC2)C(=O)NCCCC[C@@H]2NC(=O)[C@@H](Cc3ccccc3)NC(=O)[C@H](CC(=O)O)NC(=O)CNC(=O)[C@H](CCCNC(=N)N)NC2=O)NC(=O)[C@@H](Cc2ccccc2)NC(=O)[C@H](CC(=O)O)NC(=O)CNC1=O [indium-111 labelled]	athymic nude mice, female, U-87 MG glioma xenograft	U-87 MG tumour	intravenous	3 µCi	1 h	–	4.95 ± 0.39 %ID/g
